# Measured values of several laboratories.
# Several values in a cell are separate wells, animals, samples, runs or records. Numbers after ± are the reported error.
Compound,tested on,test,test system,setting,how to read,measurement,result
CC(C)[C@@H]1NC(=O)[C@@H](CCCNC(=N)N)NC(=O)[C@H]([C@@H](C)O)NC(=O)[C@@H](CCCN)NC(=O)[C@H](Cc2ccccc2)NC(=O)[C@@H](Cc2ccc(F)cc2)NC1=O,Balamuthia mandrillaris,"parasite growth, ATP luminescence",,,,IC90,17.9 µM
O=C(CCCc1cn(C[C@H]2O[C@@H]3O[C@H]4[C@H](O)[C@@H](O)[C@@H](O[C@H]5[C@H](O)[C@@H](O)[C@@H](O[C@H]6[C@H](O)[C@@H](O)[C@@H](O[C@H]7[C@H](O)[C@@H](O)[C@@H](O[C@H]8[C@H](O)[C@@H](O)[C@@H](O[C@H]2[C@H](O)[C@H]3O)O[C@@H]8Cn2cc(CCCC(=O)N[C@H]3CCOC3=O)nn2)O[C@@H]7Cn2cc(CCCC(=O)N[C@H]3CCOC3=O)nn2)O[C@@H]6Cn2cc(CCCC(=O)N[C@H]3CCOC3=O)nn2)O[C@@H]5Cn2cc(CCCC(=O)N[C@H]3CCOC3=O)nn2)O[C@@H]4Cn2cc(CCCC(=O)N[C@H]3CCOC3=O)nn2)nn1)N[C@H]1CCOC1=O,Escherichia coli,"LuxR reporter, antagonist",DH5α sensor strain,"10 µM, together with: OHHL 200 nM",,inhibition,3 ± 1%
C#CCN1CCc2c3n(c4ccccc24)C(=O)C(C)(C)C3(C(=O)OC)C1 (centres unmarked),hepatitis B virus,"HBsAg secretion, ELISA",HepAD38,"5 µM, 0.5% DMSO",reference: vehicle,inhibition,inactive
N=C(N)NCCC[C@@H]1NC(=O)[C@H](CCCNC(=N)N)NC(=O)[C@@H](CCCNC(=N)N)NC(=O)[C@@H](CCCNC(=N)N)NC(=O)[C@@H](C(c2ccccc2)c2ccccc2)NC(=O)[C@H](Cc2c[nH]c3ccccc23)NC(=O)[C@@H](C(c2ccccc2)c2ccccc2)NC1=O,Escherichia coli,,ATCC BAA-2452,MIC,,time to complete killing,3 to 4 h
CC(C)(C)NCC(SS(=O)(=O)O)c1ccccc1 (centres unmarked),Schistosoma mansoni,perfusion day 44,infected Swiss Webster mice,"600 mg/kg single dose, dosed day 15 post-infection",,liver weight,1.76 g and 1.7 g and 1.84 g and 1.5 g and 2 g
Cc1ccc(S(=O)(=O)Nn2c3c(cc(-c4nc5ccccc5s4)c2=O)CCCC3)cc1,coxsackievirus B4,"viral replication, plaque",BGM,"non-toxic dose, mean of three titres",,plaque reduction,50%
Cc1cccc(Nc2n[nH]c3nc(-c4ccccc4)nc(N)c23)c1,rhinovirus A2,viral cytopathic effect,HeLa,,,IC50,4.42 µM
C/C=C(/C)C(=O)O[C@@H]1C=C(C)CC[C@]2(O)[C@@H](C(C)C)CC(=O)[C@]12C,Helicobacter pylori,"microbial growth, broth dilution",,31.25 µg/mL,,inhibition,0%
Nc1nc(-c2ccccc2)nc2[nH]nc(Nc3ccc(Cl)cc3)c12,rhinovirus A2,viral cytopathic effect,HeLa,,,IC50,6.03 µM
CCCCCCCCCC(=O)N[C@@H](Cc1c[nH]c2ccccc12)C(=O)N[C@H](CC(N)=O)C(=O)N[C@@H](CC(=O)O)C(=O)N[C@@H]1C(=O)NCC(=O)N[C@@H](CCCNC(=O)OC2/C=C/CCCCC2)C(=O)N[C@@H](CC(=O)O)C(=O)N[C@H](C)C(=O)N[C@@H](CC(=O)O)C(=O)NCC(=O)N[C@H](CO)C(=O)N[C@@H]([C@H](C)CC(=O)O)C(=O)N[C@@H](CC(=O)c2ccccc2N)C(=O)O[C@@H]1C (some centres unmarked),Staphylococcus aureus,"planktonic bacterial growth, isothermal microcalorimetry",MSSA,"1.0 µg/mL, 24 h, 37 °C",,peak heat flow,0 µW
Nc1nc(-c2ccccc2)nc2[nH]nc(Nc3ccccc3F)c12,rhinovirus A2,viral cytopathic effect,HeLa,,,IC50,58.4 µM
CNS(=O)(=O)Nc1nccc(Cc2c(C)c3ccc(Oc4ncccc4F)cc3oc2=O)c1F,NCI-H2342,cell viability,,7 days,,IC50,> 1 µM
CC(=O)OC[C@H]1O[C@@H](Sc2sc(C(=O)c3ccc(C)cc3)c(N)c2-c2nc3ccccc3s2)[C@H](OC(C)=O)[C@@H](OC(C)=O)[C@H]1OC(C)=O,human adenovirus 7,plaque reduction,,"non-toxic dose NG, mean over three titres",,viral reduction,10%
Nc1nc(-c2ccccc2)nc2[nH]nc(Nc3cccc(F)c3)c12,rhinovirus A2,viral cytopathic effect,HeLa,,,IC50,9.05 µM
CC1(F)CN(C(=O)Cn2c(=O)c(C(=O)NCc3ccc(Cl)cc3)cc3nc(N4CCN(CCN)C4=O)cnc32)C1,Epstein-Barr virus,"viral replication, qPCR",,retest 1,,EC50,0.071 µM
CNC(=O)C1CCCN(C(=O)C2CC3CCC2N3C(=O)[C@@H]2C[C@@H](O)CN2C(=O)NCc2cccc(Cl)c2F)C1 (mixture of isomers),"Cytochrome P450 2C9 (CYP2C9, Homo sapiens, UniProt P11712)",preincubation with NADPH,human,16.7 µM,reference: negative control,remaining activity,101% and 96.7% and 112%
C[C@@H]1C(=O)O[C@@H](C)/C=C/C=C\[C@@H](C)[C@@H]2C=C[C@@H]3C[C@@]4(C)O[C@H]4[C@@H](C)[C@H]3[C@@H]2C(=O)C(Cl)(Cl)C1=O,Staphylococcus aureus,,MRSA clinical isolate,OXA resistant,,MIC,0.1 µg/mL
CN1CCCNC(=O)c2cccc(c2)C(=O)NCCCN(C)CCCNc2cccc3c2C(=O)c2cccc(c2C3=O)NCCC1,SAS,"RNA-Seq, measured: ATP1B3 mRNA",,"1 µM, 6 h",reference: untreated cells,log2 fold change,-0.768
Cc1ncsc1-c1ccc(C(C)NC(=O)C2CC(O)CN2C(=O)C(NC(=O)CCCCCCCCCCN2CCCC(Nc3ncc(Cl)c(Nc4ccccc4S(=O)(=O)C(C)C)n3)C2)C(C)(C)C)cc1 (centres unmarked),22Rv1,"RNA-seq, measured: ZNF30 mRNA",,concentration not given,reference: DMSO,log2 fold change,-1.42
FC(F)(F)c1cccc(CNc2nc(NC3CCN(Cc4ccccc4)CC3)c3nc[nH]c3n2)c1,Cryptococcus neoformans,"RNA-seq, measured: MIPS (CNAG_01539)",wild type,"48 µg/mL, 3 h",reference: untreated wild type,log2 fold change,1.93
C=CC(=O)Nc1cccc(Cn2ncc3cnc(Nc4cnn(CCOC)c4)nc32)c1,LIMK2 human,"binding, KINOMEscan",,100 nM,lower = stronger binding,percent of control,91%
CCCCCCn1cc[n+](CCCCCCOc2cc(OCCCCCC[n+]3ccn(CCCCCC)c3)cc(OCCCCCC[n+]3ccn(CCCCCC)c3)c2)c1.[Br-].[Br-].[Br-],Enterococcus faecalis,,OG1RF,,,MIC,0.5 µM
CC(=O)OC[C@H]1O[C@@H](Sc2sc(C(=O)c3ccc(Cl)cc3)c(N)c2-c2nc3ccccc3s2)[C@H](OC(C)=O)[C@@H](OC(C)=O)[C@@H]1OC(C)=O,coxsackievirus B4,plaque reduction,,non-toxic concentration,,viral titre reduction,20%
CN(Cc1ccc(C2(C(F)(F)F)CCC2)cc1)Cc1cccc2ccccc12,Trichophyton mentagrophytes,"microbial growth, disc diffusion",ATCC18748,"0.00025 µg/mL, 72 h",,inhibition zone,0 mm
CC(=O)O[C@@H]1[C@@H](OC(C)=O)[C@H](Sc2sc(C(=O)c3ccc(Br)cc3)c(N)c2-c2nc3ccccc3s2)OC[C@@H]1OC(C)=O,human adenovirus 7,plaque reduction,,"non-toxic dose NG, mean over three titres",,viral reduction,30%
C=C(NC(=O)c1csc(-c2nc3c(cc2O)-c2nc(cs2)C(=O)NC(C(C)O)C(=O)NC(=C(C)OC)c2nc(cs2)C(=O)NC2c4nc(cs4)C(=O)NC(COC(=O)c4c5c6c(cccc6n4O)COC(=O)C(OC4CC(C)(O)C(N(C)C)C(C)O4)C2OC5)c2nc-3cs2)n1)C(N)=O (centres unmarked),Streptococcus pneumoniae,,PRSP,10 isolates,,MIC50,0.0078 µg/mL
Nc1ncc(-c2cc(-c3cnn(CC(F)(F)F)c3)ncc2F)nc1C(=O)NC1CNCC(F)C1 (centres unmarked),p38-gamma,KINOMEscan competition binding,,1 µM,reference: DMSO control,remaining binding,100%
C=C[C@]1(C)C[C@@H](OC(=O)CSc2ccc(NC(=O)c3ccco3)cc2)[C@]2(C)[C@H](C)CC[C@]3(CCC(=O)[C@H]32)[C@@H](C)[C@@H]1O,Mycoplasma gallisepticum,,"infected chickens, lung","intramuscular, 80 mg/kg daily x3, 72 h",,lung mycoplasma count,2.67 log10 CFU/mL and 3.26 log10 CFU/mL and 3.89 log10 CFU/mL and 3.3 log10 CFU/mL and 2.69 log10 CFU/mL and 3 log10 CFU/mL and 2 log10 CFU/mL
Cc1cc(C(=O)Nc2nc3cccc(C)c3n2[C@H]2CCCCN(C(=O)/C=C/CN(C)C)C2)ccn1,Trypanosoma brucei brucei,,Lister 427,"0.21 µM, 0 h, kill kinetics",,proliferation,100%
CC(=O)O[C@@H]1[C@@H](OC(C)=O)[C@H](Sc2sc(C(=O)c3ccc(Cl)cc3)c(N)c2-c2nc3ccccc3s2)OC[C@H]1OC(C)=O,coxsackievirus B4,plaque reduction,,"non-toxic dose NG, mean over three titres",,viral reduction,20%
COC1CN([C@H]2CC[C@H]([C@@]3(C)Oc4c(Cl)cc(C(=O)NCc5c(SC)cc(C)[nH]c5=O)c(C)c4O3)CC2)C1,,"RNA-seq, measured: LGR4 mouse homolog","mouse, HT-1376 xenograft, whole blood",dose not given,reference: vehicle,log2 fold change,2.06
CC=C(C)C(=O)OC1CC2C(C=C(C)C3C(OC(C)=O)CC(=O)C13C)OC(=O)C2C (centres unmarked),Helicobacter pylori,"microbial growth, broth dilution",,62.5 µg/mL,,inhibition,0%
Cc1nn(-c2cccc(N)c2)c(=O)c2cnc(Nc3ccc(N4CCNCC4)cc3)nc12,"Serine/threonine-protein kinase 3 (STK3, Homo sapiens, UniProt Q13188)","enzyme activity, inhibitor",,,,IC50,> 10 µM
N#Cc1ccc(Nc2n[nH]c3nc(-c4ccccc4)nc(N)c23)cc1,rhinovirus A2,viral cytopathic effect,HeLa,,,IC50,137 µM
Nc1c(C(=O)c2ccc(Cl)cc2)sc(S)c1-c1nc2ccccc2s1,coxsackievirus B4,plaque reduction,,non-toxic concentration,,viral titre reduction,30%
CCCOC(=O)N1c2cc(CNC)ccc2[C@H](NC(=O)C(=O)Nc2ccc(Cl)c(F)c2)[C@H]1CNC(=N)N,Human immunodeficiency virus 1,"viral infection, Env pseudovirus","TZM-bl, C2101.c01 CRF01_AE",,,IC80,> 100 µM
Cc1cccc2c1N(C(=O)n1ccnn1)CC2,Arabidopsis thaliana,,wild type,"0.1 µM, seedlings",,hypocotyl length,10.7 mm
CO[C@@H]1OC[C@@H](O)[C@H](O)[C@H]1O,Helicobacter pylori,"microbial growth, broth dilution",,31.25 µg/mL,,inhibition,5.21%
Cn1ncc2cc(-c3cncc(Cl)c3N3CCC4(CCNC4=O)CC3)ccc21,LS174T,"gene expression, microarray, measured: PPFIA4 mRNA",,"concentration not given, 24 h",reference: untreated cells,log2 fold change,4.63
CCOC(=O)c1cc(-c2nc3ccccc3s2)c(=O)n(NS(=O)(=O)c2ccccc2)c1N,coxsackievirus B4,"viral replication, plaque",BGM,"non-toxic dose, mean of three titres",,plaque reduction,0%
Nc1c(C(=O)c2ccc(Br)cc2)sc(S)c1-c1nc2ccccc2s1,coxsackievirus B4,plaque reduction,,non-toxic concentration,,viral titre reduction,30%

# For quick reference, copied from above:
Compound,tested on,test,test system,setting,how to read,measurement,result
Nc1nc(-c2ccccc2)nc2[nH]nc(Nc3cccc(F)c3)c12,rhinovirus A2,viral cytopathic effect,HeLa,,,IC50,9.05 µM
Nc1nc(-c2ccccc2)nc2[nH]nc(Nc3ccc(Cl)cc3)c12,rhinovirus A2,viral cytopathic effect,HeLa,,,IC50,6.03 µM
CCOC(=O)c1cc(-c2nc3ccccc3s2)c(=O)n(NS(=O)(=O)c2ccccc2)c1N,coxsackievirus B4,"viral replication, plaque",BGM,"non-toxic dose, mean of three titres",,plaque reduction,0%
